Experimental data gathered from unrelated publications.
Parts stem from different laboratories: compare values within a part only.

Block 1
Target: RNA binding protein fox-1 homolog 2, RRM domain, GST-SBP tag (RBFOX2, Homo sapiens, UniProt O43251-10, residues 100-194)
Technique: RNA Bind-n-Seq
Form: RNA
Medium: in vitro
Concentration: 365 nM
Setting: natural RNA segment, single round, ends assumed
Reference: no-protein control
Reading: higher = stronger binding
Constant ends, left off below: GGGAGUUCUACAGUCCGACGAUC … UGGAAUUCUCGGGUGCCAA
Construct (chain): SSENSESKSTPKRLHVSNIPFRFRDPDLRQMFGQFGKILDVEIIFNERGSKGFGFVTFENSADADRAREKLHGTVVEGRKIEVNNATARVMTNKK
Sequence	RBNS enrichment (R)
UCAAGUUUGGUAUGGCCAGGGAGGGGCAGUCCUGAGGGAGAAGACGGUUCAGGGCAGUGCUCAGCAGCUGUGUGCUCCCCUGGUUGGGUCAUUAACCCUGCAGCUGCCUG	0.42
AAAUAGCUGUUAGACACCUUUGAUUCUUUGCUGCUCUCUGGUUAUGUAUGUGUGUUGUGCAUCUUCCUUGUUGUUUUAGAGUUUCCUAAAUUUUUUGCUUCUGGGGACUU	2.32
GCAUUUCAAAAGCUUGAUUGAUGUGUUCAGAGCUAAAUUAAGAGGAGUUUUCAGAUCAAAAACUGGUUACCAUUUUUUGUCAGAGUGUCUGAUGCGGCCACUCAUUCGGC	2.28
CCAGGACCAAGUCCUCUGCUGUUGGGGACCAUGGCCUGUCUCCUCACCUUAGUCCCUGGGCGUUUGCUUAUUGGUCUCCUGGAAUCUCAAAGGGCCUGAGGCCUUAGGCU	0.278
CACAGGAACAGCCCUCUUAAUCUGAGCCUGCCUAUGCUGGCAUUCUUUGCCAGUAAUGGGACACUUCUUUUGGCAUUUCUUGCAGAGUGCUUUUGAGGGACUUGGCUGUA	0.269
GGAUUUUUUUAUACGGUUUUCAUUGACACUCUUCCCUCCUCCCACCUGCCACCAGGCCUCACCAAAGCCCACUGCCAUGGGGCCAUCUGGGCCAUUCAGAGACUGGAGUG	0.243
GUUUGGUAUUUUUUAAGGUAUGUCUCCCUGUUUGCACUCAGGGUUAAAGUGUCAGACUAAAUUUUUAGAAGAAAACAGAAAUUCAGGUGUGUGUUCAUUAUAGGUUAUUC	2.49
AUUUCCAAAAAAUGGCUAGAGGGAGAGUCCAGUUUCUGAGCUCUGUACCCAAAUUAAAAUCCUGAUGUUCAGGUUAAUCCAAGCAACACGCAUUGGGUUUAAAACCAGCA	2.41
UCUGUCCCUGGUUCAACUGUGAUUUGGCUUUCCCGUGUCUUUCCUGGUGAUGCCUUGUUUGGGGUUCUGUGGGUUUGGGUGGGAAGAGGGCCAUCUGCCUGAAUGUAACC	0.648

Block 2
Target: Interferon regulatory factor 7, full length, phosphomimetic (IRF7, Homo sapiens, UniProt Q92985, residues 1-503, S101K/S471D/S472D/S475D/S476D/S477D/S483D/S484D/S487D)
Technique: protein-binding microarray
Form: double-stranded DNA, one strand shown
Medium: in vitro
Concentration: 250 nM
Setting: 60-bp whole probe
With: salmon DNA 0.4 mg/ml
Reference: random background probes
Reading: higher = stronger binding
Target sequence (chain): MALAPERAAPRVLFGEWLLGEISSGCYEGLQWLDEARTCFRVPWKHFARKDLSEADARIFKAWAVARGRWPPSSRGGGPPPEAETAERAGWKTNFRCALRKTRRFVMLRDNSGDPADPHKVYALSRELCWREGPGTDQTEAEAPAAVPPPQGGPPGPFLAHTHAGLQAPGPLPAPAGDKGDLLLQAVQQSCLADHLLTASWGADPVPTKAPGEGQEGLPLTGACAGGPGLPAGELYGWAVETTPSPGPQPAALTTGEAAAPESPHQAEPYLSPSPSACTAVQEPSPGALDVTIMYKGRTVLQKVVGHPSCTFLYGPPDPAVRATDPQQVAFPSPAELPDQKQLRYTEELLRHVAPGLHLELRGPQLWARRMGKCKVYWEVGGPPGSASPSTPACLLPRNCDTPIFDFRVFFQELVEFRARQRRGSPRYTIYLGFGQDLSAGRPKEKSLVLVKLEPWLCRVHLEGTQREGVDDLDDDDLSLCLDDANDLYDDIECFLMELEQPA
Sequence	log fluorescence [z-score]
GCCTAGCACATAGGTCTCGGACTGGGTTAGTGCTAGGTCTTGATTCGCTTGACGCTGCTG	0.664
GCCTAGCACCTAGGTTTCCTTCTCCTTTAGTGCTAGGTCTTGATTCGCTTGACGCTGCTG	2.92
GCCTAGCACATTGCTTTCTCTTTCACTGCGTGCTAGGTCTTGATTCGCTTGACGCTGCTG	1.08
GCCTAGCACTTAGGTTTCCACTATCGGTTAGTGCTAGTCTTGATTCGCTTGACGCTGCTG	2.01

Block 3
Target: Centromere-binding protein 1, full length, His-tagged (CBF1, Saccharomyces cerevisiae, UniProt P17106, residues 1-351)
Sequence of UniProt P17106 (whole entry, looked up): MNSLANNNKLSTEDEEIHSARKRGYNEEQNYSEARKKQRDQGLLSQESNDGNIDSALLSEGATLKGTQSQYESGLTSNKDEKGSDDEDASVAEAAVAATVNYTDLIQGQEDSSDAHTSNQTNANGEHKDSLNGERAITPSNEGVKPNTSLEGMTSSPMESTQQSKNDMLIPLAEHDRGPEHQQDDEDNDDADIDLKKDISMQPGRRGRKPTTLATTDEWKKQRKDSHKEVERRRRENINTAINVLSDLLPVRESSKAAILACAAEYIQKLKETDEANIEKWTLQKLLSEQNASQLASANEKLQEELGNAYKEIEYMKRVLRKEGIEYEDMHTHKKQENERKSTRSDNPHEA
Technique: competition protein-binding microarray
Form: double-stranded DNA, one strand shown
Medium: in vitro
Concentration: 2 µM
Setting: whole 60-bp probe, lowest competitor level
With: Pho4 competitor, 0.05 µM
Reading: higher = stronger binding
Constant ends, left off below: … GTCTTGATTCGCTTGACGCTGCTG
Sequence	fluorescence intensity [a.u.]
TGCGCAACAACTTTTCACGTGGATTTATGTCTAGAA	739
CTTCTGTAAATTTGTACTGTGGGTGGACGCGCCCCG	80.3
AAAGCGGTAATTTGTCCCGTGGGTGCAGATATCTAT	108
AGGTTACCGCCATCTCACCTGCAGCTTGGATCCTGA	65.6
TGCGCAACAACTTGTCAAGTGGGTGTATGTCTAGAA	67.9
AGTTGCCACAGGAGTTGCGTGACGGGTTGATAAAGG	104
CTTTCGCTGGAAAAGCACGTCCTCGCTAAGAAATTT	75

Further values, each from its own experiment
Substance	target	test	system	conditions	how to read	measurement	value
PhoQ, residues 284 288 289 292 302 303 QWQEDG	PhoP, residues 12 14 15 18 19 SFCSL (Escherichia coli, UniProt P23836)	Sort-seq, measured: YFP reporter	E. coli	PhoQ-PhoP variant library, with: 10 µM Mg2+	reference: high Mg2+ state, higher = stronger signaling	fold induction	15.8

For quick reference, copied from above (block 3):
Sequence	fluorescence intensity [a.u.]
TGCGCAACAACTTGTCAAGTGGGTGTATGTCTAGAA	67.9
AAAGCGGTAATTTGTCCCGTGGGTGCAGATATCTAT	108
AGTTGCCACAGGAGTTGCGTGACGGGTTGATAAAGG	104
